Measurements collected from several papers.
Numbered parts are unrelated; each lists some results of a single study. Substitutions count along the parent as printed.

Sample 1 — method: DHFR PCA, dose-response; matrix: yeast; together with: (+)-ABA, dose series; reading: lower = more sensitive
Target: ABI1, truncated, D143A, DHFR fusion (Arabidopsis thaliana, UniProt P49597)
Setting: Hill fit, not affinity, not high confidence
Starting sequence: PYL1, truncated, DHFR fusion (Arabidopsis thaliana, UniProt Q8VZS8); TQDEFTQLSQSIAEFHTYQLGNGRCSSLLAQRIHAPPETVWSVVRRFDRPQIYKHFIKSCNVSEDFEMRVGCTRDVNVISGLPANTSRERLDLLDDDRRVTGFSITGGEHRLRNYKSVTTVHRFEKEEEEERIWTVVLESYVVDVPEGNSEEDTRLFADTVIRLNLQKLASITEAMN
Change | ABA EC50
V161P | 4.03 µM
F56I | 995 µM
H110K | 0.393 µM
N149T | 107 µM
L166G | 854 µM
V137P | 745 µM
V145D | 579 µM
N165P | 421 µM
F47P | 472 µM
Q51K | 190 µM
F47E | 1.7 µM
D153L | 897 µM
P50K | 278 µM
Y115I | 2.41 µM
T135P | 71 µM
S140W | 275 µM
R74S | 8.53 µM
L91G | 354 µM
I33W | 0.311 µM
W41C | 2.62 µM
T101R | 1780 µM
G102F | 791 µM

Sample 2 — target: CCNB1, cyclin fold, Cln2 fusion (human); method: yeast growth competition, sequencing; matrix: yeast; setting: strong parent motif; baseline: not given; reading: higher = stronger binding
Starting sequence: BRCA2 docking peptide (human); PSIKRNLLNEFDR
Change | normalised enrichment score
PSIKRNLLHEFDR [N9H] | 2.48
PSIKRNLLNEVDR [F11V] | 1.03
PSICRNLLNEFDR [K4C] | 5.05
PSIKQNLLNEFDR [R5Q] | 0.295
PSIKRNLLNEFDK [R13K] | 2.25
PSIKRCLLNEFDR [N6C] | 0.933
PSIFRNLLNEFDR [K4F] | 2.02
PSIKRNLQNEFDR [L8Q] | 0.0308
PSIKRGLLNEFDR [N6G] | 0.485
NSIKRNLLNEFDR [P1N] | 2.62
PSIKVNLLNEFDR [R5V] | 1.24
PSIKANLLNEFDR [R5A] | 0.172
PSNKRNLLNEFDR [I3N] | 0.375
PSIKRNLLNDFDR [E10D] | 3.31
PSIKRNILNEFDR [L7I] | 1.02
PSIKRNLLLEFDR [N9L] | 2.63
PSIKRNLLNFFDR [E10F] | 1.36
PSIKRYLLNEFDR [N6Y] | 0.335
PSHKRNLLNEFDR [I3H] | 0.933
PTIKRNLLNEFDR [S2T] | 3.08
PSIKRNLDNEFDR [L8D] | 0.608
PSIKRNTLNEFDR [L7T] | 0.914
PHIKRNLLNEFDR [S2H] | 1.07
PSIKRNLLREFDR [N9R] | 2.16
PSIKRNLLNEFYR [D12Y] | 1.29

Sample 3 — target: FOSL2, bZIP domain (human); method: DHFR protein complementation; matrix: yeast; baseline: wild-type JUN-FOS pair; reading: higher = stronger binding
Setting: single substitutions, most at no-binding floor
Starting sequence: JUN, bZIP domain (human); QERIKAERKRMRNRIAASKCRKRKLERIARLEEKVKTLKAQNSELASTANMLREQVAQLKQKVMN; partner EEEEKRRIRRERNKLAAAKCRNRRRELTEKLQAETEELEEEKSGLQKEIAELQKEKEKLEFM
Change | binding fitness
A57R | -0.00526 natural log
Q55H | 0.0154 natural log
T37N | 0.151 natural log
L38N | -1.21 natural log
Q55T | -0.00477 natural log
V56W | -1.31 natural log
N42I | 0.00627 natural log
T37E | 0.127 natural log
A57V | 0.0218 natural log
Q41E | 0.0986 natural log
E54L | -0.0688 natural log
E32I | -0.2 natural log
A57Y | 0.0542 natural log
A57L | -0.108 natural log
V35A | -0.138 natural log
L59P | -1.42 natural log
T37M | 0.337 natural log

Sample 4 — method: RNA Bind-n-Seq; molecule type: RNA; matrix: in vitro; tested at: 365 nM; baseline: no-protein control; reading: higher = stronger binding
Target: RNA binding protein fox-1 homolog 2, RRM domain, GST-SBP tag (RBFOX2, Homo sapiens, UniProt O43251-10, residues 100-194)
Setting: natural RNA segment, single round, ends assumed
Constant ends, left off below: GGGAGUUCUACAGUCCGACGAUC … UGGAAUUCUCGGGUGCCAA
Construct (chain): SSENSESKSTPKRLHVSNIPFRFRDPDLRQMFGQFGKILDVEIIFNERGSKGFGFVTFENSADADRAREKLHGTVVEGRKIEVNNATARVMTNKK
Sequence | RBNS enrichment (R)
UGUAUACACUGCUUGCAUAAACUCAACCAGCUGCCUUUUUAAAGGGAGCUCUAGUCCUUUUUGUGUAAUUCACUUUAUUUAUUUUAUUACAAACUUCAAGAUUAUUUAAG | 0.556
GAUGGUUGUGGGGGUUUCUAGGAAGCAGCUGCUGUGACAGGCCAAUCCCAGGCUUGCCCCCGAGCCCUCCUGUCCUUCUGGGUUUGUGUUUGCCUUGCCUGGUGCUUCCU | 2
AGGCUCGCUGCUCUCUGGGCCUCAGUUUCCCCACCUGCCAGCGGGCUCGGCCCUGUCCUCCUCACAGGCUGGUGUGGCCGUCAGGGUGGGUGGGGUUAUUGUUAGUAGGC | 0.478
GACUCCACCCCACCGUGGAAAGGGAGCUUGAAGCAGAAAAGAGGGCGCCUCGGAGCCAAUGUUGAGCCUUGAAGUUCAAAGGAAGAAGUAGCCAAAUCUUUUUCUAAUAA | 0.575
GCAGUGCCCCAGCUGGGAAGAGGGCGGGAUCGGGCACUGGUUCCUCCUUGUCCCCGCUUUCUUGGGGGCUUGCUACUUUUUGUCUUCUAUUGUGUGGCUUUCUGAGUAUU | 2.37
UUGUUUUUGGUUUUUGUGUGUGUGUGUGUGUGCUGCAUGCACAUGCGUCCAAGACUUACGGGUGGUUUAGGGGAAAGUGCUAGCAACAGUGUCAAUGUCAUUGUUAACUA | 0.644
GUAAAGCAGGCUAGAGUCUUAACCAUGGUGCUAUUCACUGGGUUUACUUGUUUAACACAAGUUUAUACCUGGUGUCAAUAAAACAAAUAUGUAUUUCUUGUCUACUAAGG | 0.549
UACUGCACACAGAUUGUGUACUGCACCCCAGUCCAGGUGACUGGUACCCACUCGAGUUGUGCCGUGCACAACCUGUCCAGUAUAUGCAUGUGGUGGCCCUACUGACUGGU | 11
AGUCUGGCCAGUGCCAAGAGACAACAUAACAUGGCAGGUGGAUGGUGUCGGUGUCAUUGUCUCAGCUCAAAGAGCCACCUGCUUCAGAUACCAUGGGCAUGUGCUGAGUG | 0.704
CUUUGUCUCAAGUUCACACUCUUAGCAUAGAAUAUUAUUGACUAGGCUGUAUGACAUUUUGAGCUCUUAACUGUGAAUGGCAUUCAUUAAGCUCCUUUAUCCUAUAGAUU | 0.355
UUCCCACGCAGUUGAGUGUCAUCACCCAAGUCCCUGUCAUCUAGGAAGGAAGUGGAUGCAGGGUGGAACAAAGAACCUCCGGUCACUGUAGCCCCUCUUCUCUGCUCUGC | 0.424
GACCCCCUCCCCAUUGAUGCCACCUCAAGGAAAGGGGGCAUGUUGCCAGCUGGUUCCCGCUAGGGAGCUUUCGAUGUGCAAUAUUAGAAAGGAGACAUGGAAAAAAAAAG | 0.378

Sample 5 — method: RNA Bind-n-Seq; molecule type: RNA; matrix: in vitro; tested at: 200 nM; setting: whole 134-nt RNA, ends assumed; together with: 150 mM LiCl; baseline: input library; reading: higher = stronger binding; each molecule: 7-deaza-guanosine replaces G
Target: Ras GTPase-activating protein-binding protein 1, full length (G3BP1, Homo sapiens, UniProt Q13283)
Chain of UniProt Q13283 (whole entry, looked up): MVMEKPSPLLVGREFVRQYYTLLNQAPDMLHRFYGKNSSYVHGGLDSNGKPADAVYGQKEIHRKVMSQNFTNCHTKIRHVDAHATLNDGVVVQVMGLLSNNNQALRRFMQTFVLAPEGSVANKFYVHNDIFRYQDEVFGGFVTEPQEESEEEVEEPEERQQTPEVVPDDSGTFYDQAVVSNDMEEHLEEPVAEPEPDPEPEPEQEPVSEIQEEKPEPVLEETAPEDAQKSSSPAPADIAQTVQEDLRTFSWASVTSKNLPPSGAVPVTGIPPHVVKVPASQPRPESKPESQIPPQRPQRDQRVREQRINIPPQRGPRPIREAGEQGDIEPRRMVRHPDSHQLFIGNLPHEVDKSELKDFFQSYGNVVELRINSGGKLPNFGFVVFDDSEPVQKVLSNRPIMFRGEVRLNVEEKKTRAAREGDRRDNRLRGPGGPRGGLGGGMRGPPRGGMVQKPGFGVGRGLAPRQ
Constant ends, left off below: GGGAGUUCUACAGUCCGACGAUC … UGGAAUUCUCGGGUGUCAAGG
Sequence | log2 enrichment
CACAGACAACACGCACCCACACAGACACAGAGGGAAGGGGUUGGGAUGGGGACAGGGUGCACAGCAGGGCGGGGUAGGACCCCAGCCCCC | 0.376
GCAGGAAGUAAAAACAAAUGGAAAUGCUUCGGAUAGUGGCAGGGGUGGGGGUUGCUAAGGAAAGGGUGGGAUGGGAGUGGGUAAUGAGUU | 0.492
UUCAAGGCCAUGAAGGACCUGUUUAUGCGGUGCAUGCUGUUUACCAGAGGAGGACAUCAGAUCCUGCAUUAUGUACACUGAUCGUUUCUG | -1.49
AGUCCUGUGCUACACAUCGUAUGUACCGAAUCGGGAAAAAAAGGGAGGGAAAAAGGGAAAGUAUUAUGUUACGCCGUUCGGAUCUGCACU | -0.804
CUGUGCUACACAUCGUAUGUACCGAAUCGGGAAAAAAAGGGAAAAAAAGGGGAAAAAAAGGAAAGUAUUAUGUUACGCCGUUCGGAUCUG | 0.0544
UUCGACGAAACAAUUCGAAAGCCCAUCAGUUUGGGUUGUGGCCAUACUGUCUGCAAGAUGUGCCUGAAUAAACUCCACCGCAAGGCUUGC | 0.175
CACAGACAACACGCACCCACACAGACACAGAGGGAAGGGGUUGGGAUGGGGACAGGCUGCACAGCAGGGCGGGGUAGGACCCCAGCCCCU | -0.0104
UCCUCAAGUCCUGUGCUACACAUCGUAUGUACCGAAUCGGAGGAGGGAGGGAAAGUAUUAUGUUACGCCGUUCGGAUCUGCACUUCCAGC | -1.13
CCUCAAGUCCUGUGCUACACAUCGUAUGUACCGAAUCGGGGCGGCGGGGCGGGAAAGUAUUAUGUUACGCCGUUCGGAUCUGCACUUCCA | -0.346
UGGAGAGGGAAGUCCCAAUGGUGCUAGAAUGGUGCUGCAGUGGCAGAAGACGGCUCACAAGUGAGGUCUGGAAGAACAACAGGGAAGACA | 0.167
CUGUGCUACACAUCGUAUGUACCGAAUCGGGUUUUUUUGGGUUUUUUUGGUUUUUUUGGGGAAAGUAUUAUGUUACGCCGUUCGGAUCUG | 1.08

Sample 6 — method: competition protein-binding microarray; molecule type: double-stranded DNA, one strand shown; matrix: in vitro; tested at: 2 µM; together with: Cbf1 competitor, 0.05 µM; reading: higher = stronger binding; constant ends, left off below: … GTCTTGATTCGCTTGACGCTGCTG
Target: Phosphate system positive regulatory protein PHO4, full length, GST-tagged (PHO4, Saccharomyces cerevisiae, UniProt P07270, residues 1-312)
Setting: whole 60-bp probe, lowest competitor level
Construct (chain): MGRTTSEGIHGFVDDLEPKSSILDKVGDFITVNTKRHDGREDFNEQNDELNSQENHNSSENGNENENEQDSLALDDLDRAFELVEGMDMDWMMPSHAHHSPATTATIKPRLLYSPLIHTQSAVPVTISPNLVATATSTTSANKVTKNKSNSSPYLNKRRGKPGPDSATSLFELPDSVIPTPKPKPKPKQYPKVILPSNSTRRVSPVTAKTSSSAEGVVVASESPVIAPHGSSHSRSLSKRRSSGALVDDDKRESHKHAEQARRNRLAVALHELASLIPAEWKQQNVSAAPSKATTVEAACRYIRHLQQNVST
Sequence | fluorescence intensity
ACCCCATTATCTGGAGGCGTGCCGACAGCTCCGTTG | 10800 a.u.
CATACCCAACCTTGTGCGGTGGGTGAAGATATTTGT | 7270 a.u.
CCGTTTCTACCAGTACACGTGTAGCCAATTTTATCG | 16200 a.u.
TTACGGCCATTTCTGCTCGTGGTGAAGATCAAGTGT | 9520 a.u.
TTGGAAGTTGTATCGCACGTACAGGACCTGAACACT | 6170 a.u.
TCGGTTACGTACGATAACGTGATTGTGCCACAGGAG | 7850 a.u.
CGTCCTAGCGATTGAGTTGTGGGTGCCATGAGGAAG | 6110 a.u.
TTCTGTAGGTTATACCATGTGCTAAATGTAGTGGTC | 9980 a.u.
ATAGCAGCCTATGGACACGGGATACAGTACCAGCAA | 6660 a.u.
AGATTTAGTCTATCCCACATGACAGGCAACAGCTCG | 8280 a.u.
AATTACTGGTTCACACTCGTGGGTACCAAACGATTC | 10400 a.u.
GCCCTGTAATGAAGCTGCGTGATGGGACCTGTGCCC | 5820 a.u.
GGCGCAAATAGTTGCCACGTGCGATTGCGGTGTATG | 18400 a.u.
CTTTCCCGATCTTGGTAGGTGGGTGTAGCACATTTG | 5040 a.u.
TGATGACCAAGTTGCCACGTGTCCTCTAGTGGCAGG | 16900 a.u.
GGTTCGTAGCCAGACGCCGTGACGGTTGGGCCTCTA | 3350 a.u.

A few entries again (sample 2):
Change | normalised enrichment score
PSIKRNLQNEFDR [L8Q] | 0.0308
PSIKRYLLNEFDR [N6Y] | 0.335
PSHKRNLLNEFDR [I3H] | 0.933
PSICRNLLNEFDR [K4C] | 5.05
PSIKRNLDNEFDR [L8D] | 0.608
PSIKRNLLNEFYR [D12Y] | 1.29
PSIKRCLLNEFDR [N6C] | 0.933
PSIKRNLLHEFDR [N9H] | 2.48
PSIKANLLNEFDR [R5A] | 0.172
PSIKRNLLLEFDR [N9L] | 2.63
PHIKRNLLNEFDR [S2H] | 1.07
PSIKRNLLNFFDR [E10F] | 1.36
PSIKQNLLNEFDR [R5Q] | 0.295
PSNKRNLLNEFDR [I3N] | 0.375
PSIKRNILNEFDR [L7I] | 1.02
PSIKRNLLREFDR [N9R] | 2.16
PSIKVNLLNEFDR [R5V] | 1.24
